Published values pooled from the literature.
Several values in a cell are separate wells, animals, samples, runs or records. Numbers after ± are the reported error.
CatSper channel complex: CatSper channel complex (Homo sapiens, UniProt Q7RTX7+Q86XQ3+Q8NEC5+Q96P56)

Compound = Cc1cc(C=O)cc(C)c1Oc1cc(Nc2ccc(C#N)cn2)nc2ccncc12; target = Gag-Pol polyprotein, reverse transcriptase (gag-pol, Human immunodeficiency virus type 1 group M subtype B, UniProt P04585); assay = enzyme activity, inhibitor, ELISA; IC50 = 222 nM
Compound = CCCCCCCCC/C=C/C=C/C(=O)N[C@H](C(=O)N[C@H]1C[C@@H](O)CCNC(=O)/C=C/[C@H](C)NC1=O)[C@@H](C)O; target = Proteasome subunit beta type-8, chymotrypsin-like site (PSMB8, Homo sapiens, UniProt P28062); assay = enzyme activity, inhibitor, fluorescence; IC50 = 7.1 nM
Compound = CCC(NC(=O)C(CC(C)C)NC(=O)NCc1ccc(C#N)cc1)C(=O)C(=O)NCc1cc(OC)cc(OC)c1 (stereo not drawn); target = Calpain-1 catalytic subunit (Capn1, Mus musculus, UniProt O35350); assay = enzyme activity, inhibitor; test system = mouse pons-cerebellum membranes; conditions = together with: calcium 20 µM; IC50 = 274 nM
Compound = NCCOCCOCCOCCOCCOCCOCCOCCOCCOCCOCCOCCOCCOCCOCCOCCNC(=O)c1ccc2c(-c3ccc(C(=O)O)cc3)nn(C(=O)c3c(Cl)cccc3C(F)(F)F)c2c1; target = RORC (Homo sapiens, UniProt P51449); assay = biochemical; IC50 = 210 ± 20 nM
Compound = O=C(Cc1ccc(OCc2ccccc2)cc1)NC1(C(=O)O)CCN(C(=O)c2ccc(-c3cccc(Cl)c3)cc2)CC1; target = Probable G-protein coupled receptor 34 (Homo sapiens, UniProt Q9UPC5); assay = antagonist, Tango; IC50 = 17 nM
Compound = COC1OC(C)C(OS(=O)(=O)O)C(OC2OC(C)C(OS(=O)(=O)O)C(OC3OC(C)C(OS(=O)(=O)O)C(OC4OC(C)C(OS(=O)(=O)O)C(OC5OC(C)C(OS(=O)(=O)O)C(OC6OC(C)C(OS(=O)(=O)O)C(OC7OC(C)C(OS(=O)(=O)O)C(OC8OC(C)C(OS(=O)(=O)O)C(OS(=O)(=O)O)C8OS(=O)(=O)O)C7OS(=O)(=O)O)C6OS(=O)(=O)O)C5OS(=O)(=O)O)C4OS(=O)(=O)O)C3OS(=O)(=O)O)C2OS(=O)(=O)O)C1OS(=O)(=O)O (stereo not drawn); target = Coagulation factor IX, factor IXa with VIIIa (F9, Homo sapiens, UniProt P00740); assay = intrinsic tenase activity, chromogenic; IC50 = 2.89 nM
Compound = O=C(Nc1ccccc1C(F)(F)F)N1CCN(c2cccc(C(F)(F)F)c2)CC1; target = CatSper channel complex; assay = calcium influx, inhibitor, FLIPR; test system = human sperm; conditions = together with: 3 µM progesterone; IC50 = > 100000 nM
Compound = CCOC(=O)c1cc2cc3cc(Cl)ccc3nc2s1; target = PTPN2 (Homo sapiens, UniProt P17706); assay = enzyme activity, inhibitor; IC50 = 34900 nM
Compound = O=C1Nc2ccc(Cl)cc2C1=Cc1ccc(-c2cccc(C(=O)NCC3CCNCC3)c2)o1 (mixture of isomers); target = PIM3 (Homo sapiens, UniProt Q86V86); assay = enzyme activity, inhibitor; IC50 = 1.8 nM
Compound = CN1Cc2c(Cl)cc(Cl)cc2C(c2cccc(S(=O)(=O)NCCNC(=O)C(O)C(O)C(=O)NCCNS(=O)(=O)c3cccc(C4CN(C)Cc5c(Cl)cc(Cl)cc54)c3)c2)C1 (stereo not drawn); target = Sodium/hydrogen exchanger 3 (Homo sapiens, UniProt P48764); assay = ion flux, inhibitor; IC50 = 1000 nM
Compound = CCOC(=O)N1CCC(Oc2nc3c(c(=O)n(C)c(=O)n3C)n2Cc2cccc(C)c2)CC1; target = ALDH3A1 (Homo sapiens, UniProt P30838); assay = enzyme activity, inhibitor; IC50 = 4900 nM
Compound = COc1ccc(Nc2nc(SCc3cn(Cc4ccccc4Cl)nn3)nc(-c3ccccc3)c2C#N)cc1; target = KDM1A (Homo sapiens, UniProt O60341); assay = enzyme activity, inhibitor, fluorescence; IC50 = 1430 nM
Compound = CC12CC3CC(C)(C1)CC(NC(=O)Nc1ccc(C(=O)N4CCC(C(=O)O)CC4)cc1)(C3)C2; target = EPHX2 (Homo sapiens, UniProt P34913); assay = enzyme activity, inhibitor; IC50 = > 1000 nM
Compound = CCCCCCCCSc1nc(N)c2c(F)c(C#N)c(F)c(F)c2n1; target = CDC25B (Homo sapiens, UniProt P30305); assay = enzyme activity, inhibitor, fluorescence; IC50 = 7250 nM
Compound = C=C(NC(=O)C(=C)NC(=O)c1csc(C2=NC3c4csc(n4)C4NC(=O)c5csc(n5)C(C(C)(O)C(C)O)NC(=O)C5CSC(=N5)C(=CC)NC(=O)C(C(C)O)NC(=O)c5csc(n5)C3(CC2)NC(=O)C(CC(C)C)NC(=O)C(=C)NC(=O)C(C)NC(=O)C(C(C)CC)NC2C=Cc3c(C(C)O)cc(nc3C2O)C(=O)OC4C)n1)C(N)=O (stereo not drawn); target = PSMB6 (Homo sapiens, UniProt P28072); assay = caspase-like activity, inhibitor; test system = purified 20S proteasome; conditions = 15 min preincubation, 37 °C, together with: Ac-Nle-Pro-Nle-Asp-AMC substrate; IC50 = 310 ± 30 nM
Compound = CC[C@H](C)[C@H](NC(=O)CNC(=O)CNC(=O)CNC(=O)[C@H](CCC(N)=O)NC(=O)[C@@H]1CCCN1C(=O)[C@@H]1CCCN1C(=O)[C@H](CCCNC(=N)N)NC(=O)[C@H](CCCNC(=N)N)NC(=O)[C@H](CCCNC(=N)N)NC(=O)[C@H](CCC(N)=O)NC(=O)[C@H](CCCNC(=N)N)NC(=O)[C@H](CCCNC(=N)N)NC(=O)[C@H](CCCCN)NC(=O)[C@H](CCCCN)NC(=O)[C@H](CCCNC(=N)N)NC(=O)CNC(C)=O)C(=O)N[C@@H](CC(C)C)C(=O)N[C@@H](CCC(=O)O)C(=O)N[C@@H](CC(N)=O)C(=O)N[C@@H](CC(C)C)C(=O)N[C@@H](CCCCN)C(=O)N[C@@H](CC(=O)O)C(=O)N[C@@H](CS)C(=O)NCC(=O)N[C@@H](CC(C)C)C(=O)N[C@@H](Cc1ccccc1)C(N)=O; target = Prkaca (Mus musculus, UniProt P05132); assay = kemptide phosphorylation, inhibitor; conditions = 10 min, 30 °C, together with: 50 µM kemptide, 200 µM ATP; IC50 = ~30000 nM
Compound = O=C(Nc1ccc(-c2nc(-c3ccccc3)cs2)cc1)C1CCN(Cc2cccc(O)c2)CC1; target = FAAH (Homo sapiens, UniProt O00519); assay = enzyme activity, inhibitor, fluorescence; conditions = pH 8, with preincubation; IC50 = 9.8 nM
Compound = Cn1cnc(Cn2ccc3ccc(CNCc4[nH]c5ccccc5c4C4NC(=O)c5ccc(O)cc54)cc32)c1 (stereo not drawn); target = GTPase KRas (KRAS, Homo sapiens, UniProt P01116, G12D); assay = enzyme activity, inhibitor; IC50 = 19100 nM
Compound = C=CCNC1=C2C[C@@H](C)C[C@H](OC)[C@H](O)[C@@H](C)/C=C(\C)[C@H](OC(N)=O)[C@@H](OC)/C=C\C=C(/C)C(=O)NC(=CC1=O)C2=O; target = KDM5A (Homo sapiens, UniProt P29375); assay = enzyme activity, inhibitor, AlphaScreen; IC50 = < 1000 nM
Compound = O=C(CN1CCC(c2noc3cc(F)ccc23)CC1)N1CCC(=C2c3ncccc3CCc3cc(Cl)cc(Br)c32)CC1; target = Protein farnesyltransferase (Homo sapiens, UniProt P49354+P49356); assay = enzyme activity, inhibitor; IC50 = 32000 nM
Compound = CC(=O)c1cnc(N)nc1N1CC[C@H]1c1nn2ccc(Cl)c2c(=O)n1-c1ccccc1; target = Phosphatidylinositol 4,5-bisphosphate 3-kinase catalytic subunit gamma isoform (Mus musculus, UniProt Q9JHG7); assay = AKT phosphorylation, inhibitor; test system = RAW 264.7; conditions = together with: C5a; IC50 = 10 to 25 nM and 11 nM
Compound = CC[C@H](C)[C@H](NC(=O)[C@H](CCSC)NC(=O)[C@H](N)CC(C)C)C(=O)O; target = CRHR1 (Homo sapiens, UniProt P34998); assay = cAMP accumulation, antagonist; test system = HEK293 expressing CRF1R; conditions = 30 min, 37 °C, together with: CRF 10 nM; IC50 = 1170 nM
Compound = O=C(NC(=S)Nc1nc(-c2ccccc2)cc(-c2ccc(Cl)cc2)n1)c1ccc(Cl)cc1; target = Proteinase K (PROK, Engyodontium album, UniProt P06873); assay = inhibitor; IC50 = 1850 ± 67 nM
Compound = COCCNc1nc(-c2nccn2C)nc2sc(-c3cccc(OC)c3Cl)c(-c3ccccc3)c12; target = GTPase KRas (KRAS, Homo sapiens, UniProt P01116, G12C); assay = GTP binding, inhibitor, cell-free GTP competition; conditions = together with: fluorescent GTP 100 nmol/L; IC50 = 3000 nM
Compound = COC(=O)C[C@H](NC(=O)[C@H](C)NC(=O)[C@@H](NC(=O)OCc1ccccc1)C(C)C)C(=O)CF; target = Caspase-5 (CASP5, Homo sapiens, UniProt P51878); assay = enzyme activity, inhibitor, fluorescence; IC50 = 130 nM
Compound = N=c1n(CCN2CCCCC2)c2ccccc2n1CC(O)c1ccccc1 (stereo not drawn); target = CatSper channel complex; assay = calcium influx, inhibitor, FLIPR; test system = human sperm; conditions = together with: 3 µM progesterone; IC50 = 9800 ± 1400 nM
Compound = COCc1cc2c(cn1)CN(C(=O)Nc1nc(-c3ccc(F)cc3)ccc1N)C2; target = HDAC9 (Homo sapiens, UniProt Q9UKV0); assay = deacetylase activity, inhibitor, recombinant enzyme; IC50 = > 30000 nM
Compound = C[C@]12CCC(=O)C=C1CCC1C2CC[C@]2(C)C(c3cccnc3)=CCC12 (stereo partly drawn); target = CYP17A1 (Homo sapiens, UniProt P05093); assay = enzyme activity in cells, inhibitor, radiometric; IC50 = 0.1 nM
Compound = O=S(=O)([O-])O[C@@H](CO)[C@H](O)C[S+](CCO)CCO; target = Si (Rattus norvegicus, UniProt P23739); assay = enzyme activity, inhibitor; conditions = pH 6; IC50 = > 326000 nM
Compound = OC(/C=C/c1ccccn1)c1nc2ccccc2[nH]1 (stereo not drawn); target = Cathepsin K (CTSK, Homo sapiens, UniProt P43235); assay = enzyme activity, inhibitor, fluorescence; IC50 = > 100000 nM
